# Measured values of several laboratories.
# Protocols differ between the studies behind these lines. ± marks the error that the study gave.
# GRM2: Metabotropic glutamate receptor 2 (GRM2, Homo sapiens, UniProt Q14416)
# Chain of UniProt Q14416 (whole entry, looked up): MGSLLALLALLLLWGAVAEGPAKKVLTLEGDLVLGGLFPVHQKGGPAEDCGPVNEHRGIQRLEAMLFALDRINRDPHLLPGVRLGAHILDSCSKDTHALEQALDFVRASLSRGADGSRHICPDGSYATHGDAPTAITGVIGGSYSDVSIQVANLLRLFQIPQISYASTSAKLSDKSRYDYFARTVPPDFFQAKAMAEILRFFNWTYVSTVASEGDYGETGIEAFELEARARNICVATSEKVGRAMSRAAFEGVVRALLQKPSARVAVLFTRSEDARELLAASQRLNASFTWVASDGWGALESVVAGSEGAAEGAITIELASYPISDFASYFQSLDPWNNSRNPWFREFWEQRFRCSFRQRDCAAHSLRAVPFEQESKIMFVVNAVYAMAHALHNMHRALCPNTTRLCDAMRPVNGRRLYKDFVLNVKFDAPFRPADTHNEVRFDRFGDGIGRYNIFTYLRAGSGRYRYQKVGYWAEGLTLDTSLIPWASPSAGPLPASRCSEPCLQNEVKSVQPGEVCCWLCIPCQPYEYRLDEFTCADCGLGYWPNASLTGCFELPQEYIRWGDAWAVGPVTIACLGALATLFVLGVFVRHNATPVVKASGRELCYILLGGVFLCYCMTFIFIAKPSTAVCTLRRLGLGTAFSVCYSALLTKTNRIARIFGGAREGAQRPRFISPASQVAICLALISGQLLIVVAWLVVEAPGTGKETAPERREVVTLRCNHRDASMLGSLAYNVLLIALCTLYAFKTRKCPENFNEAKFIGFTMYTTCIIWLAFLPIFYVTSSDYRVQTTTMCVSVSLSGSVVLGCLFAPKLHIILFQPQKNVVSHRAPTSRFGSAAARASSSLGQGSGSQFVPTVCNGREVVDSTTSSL
# MED23 with ELF3: Mediator of RNA polymerase II transcription subunit 23, with ELF3 (MED23, Homo sapiens, UniProt Q9ULK4)
# Chain of UniProt Q9HC97 (whole entry, looked up): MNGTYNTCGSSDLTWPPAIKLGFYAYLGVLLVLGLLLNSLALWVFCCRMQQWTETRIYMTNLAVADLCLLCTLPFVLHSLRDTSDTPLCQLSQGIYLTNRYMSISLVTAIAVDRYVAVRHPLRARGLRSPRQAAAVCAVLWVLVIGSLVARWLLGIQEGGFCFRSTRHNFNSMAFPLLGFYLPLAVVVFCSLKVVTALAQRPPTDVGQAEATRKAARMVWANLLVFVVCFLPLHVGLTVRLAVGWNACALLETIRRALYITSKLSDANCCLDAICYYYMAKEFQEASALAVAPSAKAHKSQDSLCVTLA
Structure (SMILES),target,test,system,setting,scale,measurement,result
Cc1ccc(Oc2ccc(-c3ccn4c(CC5CC5)nnc4c3C(F)(F)F)cc2F)c(C)n1,GRM2,agonist,,no glutamate,,Emax,101%
COc1ccc(C=CC(=O)c2ccccc2O)c2ccccc12,MED23 with ELF3,"SEAP reporter gene, inhibitor",,"10 µM, 12 h",,inhibition,80%
CCCCn1ccn2c(-c3ccc(Oc4ccnc(C)c4)c(F)c3)c(C)nc2c1=O,GRM2,agonist,,no glutamate,,Emax,90 ± 2%
O=C(O)C(=O)Cc1ccc(O)cc1,"GPR35 (Homo sapiens, UniProt Q9HC97)","dynamic mass redistribution, agonist",HT-29,1 h,,EC50,inactive
O=C(C=Cc1ccco1)c1cccc(O)c1,MED23 with ELF3,"SEAP reporter gene, inhibitor",,"10 µM, 12 h",,inhibition,86%
O=[N+]([O-])c1ccc(/C=N/Nc2nnc(N/N=C/c3ccc([N+](=O)[O-])o3)c3ccccc23)o1,iron(III),UV-Vis titration,,stoichiometry 2,,binding constant,5.5e+09 M⁻²
O=C(Nc1cc(-c2ccccc2)n[nH]1)C1COc2ccccc2O1 (stereo not drawn),"crk3, with CYC6 (Leishmania mexicana, UniProt O15851)",IMAP fluorescence polarisation,,"30 µM, with L. major CYC6",,inhibition,86%
N#Cc1c(-c2ccc(OCC3CC3)c(Cl)c2)ccn2c(CC(F)(F)F)cnc12,GRM2,agonist,,no glutamate,,Emax,30%
Clc1nnc(N/N=C/c2ccc(Br)cc2)c2ccccc12,iron(III),UV-Vis titration,,stoichiometry 1,,binding constant,3200 M⁻¹
O=C(C=Cc1ccc(Cl)cc1)c1ccccc1O,MED23 with ELF3,"SEAP reporter gene, inhibitor",,"10 µM, 12 h",,inhibition,80%
Cc1cc(Oc2ccc(-c3ccn4c(CC5CC5)nnc4c3C(F)(F)F)cc2F)ccn1,GRM2,"GTPγS binding, positive allosteric modulator",,added: EC20 glutamate,baseline: control glutamate response,Emax,269 ± 45%
O=C1Nc2ccc(S(=O)(=O)Nc3ccccc3)cc2C1=C1CCCC1,"CDK2 (Homo sapiens, UniProt P24941)","kinase activity, inhibitor, kinase panel profiling",,concentration not given,,inhibition,32%
